# Measured values from different studies.
# Numbered parts are unrelated; each lists some results of a single study. Several values in a cell are separate wells, animals, samples, runs or records.
# UniProt P25098, sequence (whole entry, looked up): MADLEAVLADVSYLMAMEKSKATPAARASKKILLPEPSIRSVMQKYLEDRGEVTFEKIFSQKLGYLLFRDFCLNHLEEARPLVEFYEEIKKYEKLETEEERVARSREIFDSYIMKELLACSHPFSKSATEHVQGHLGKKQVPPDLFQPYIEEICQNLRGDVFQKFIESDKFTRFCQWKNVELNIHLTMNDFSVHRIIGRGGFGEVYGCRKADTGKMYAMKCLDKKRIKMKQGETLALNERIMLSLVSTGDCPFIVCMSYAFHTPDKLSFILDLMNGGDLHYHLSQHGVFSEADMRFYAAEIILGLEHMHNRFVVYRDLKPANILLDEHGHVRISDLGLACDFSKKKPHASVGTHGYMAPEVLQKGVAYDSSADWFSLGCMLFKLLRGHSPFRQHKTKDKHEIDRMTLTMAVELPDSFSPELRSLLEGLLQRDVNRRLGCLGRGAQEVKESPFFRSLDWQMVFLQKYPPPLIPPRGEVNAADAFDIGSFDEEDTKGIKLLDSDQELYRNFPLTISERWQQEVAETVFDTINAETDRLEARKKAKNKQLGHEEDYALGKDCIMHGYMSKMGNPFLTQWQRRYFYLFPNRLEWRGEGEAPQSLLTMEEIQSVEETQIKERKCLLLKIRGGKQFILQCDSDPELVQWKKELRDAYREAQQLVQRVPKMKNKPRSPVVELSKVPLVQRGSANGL
# UniProt O95835, sequence (whole entry, looked up): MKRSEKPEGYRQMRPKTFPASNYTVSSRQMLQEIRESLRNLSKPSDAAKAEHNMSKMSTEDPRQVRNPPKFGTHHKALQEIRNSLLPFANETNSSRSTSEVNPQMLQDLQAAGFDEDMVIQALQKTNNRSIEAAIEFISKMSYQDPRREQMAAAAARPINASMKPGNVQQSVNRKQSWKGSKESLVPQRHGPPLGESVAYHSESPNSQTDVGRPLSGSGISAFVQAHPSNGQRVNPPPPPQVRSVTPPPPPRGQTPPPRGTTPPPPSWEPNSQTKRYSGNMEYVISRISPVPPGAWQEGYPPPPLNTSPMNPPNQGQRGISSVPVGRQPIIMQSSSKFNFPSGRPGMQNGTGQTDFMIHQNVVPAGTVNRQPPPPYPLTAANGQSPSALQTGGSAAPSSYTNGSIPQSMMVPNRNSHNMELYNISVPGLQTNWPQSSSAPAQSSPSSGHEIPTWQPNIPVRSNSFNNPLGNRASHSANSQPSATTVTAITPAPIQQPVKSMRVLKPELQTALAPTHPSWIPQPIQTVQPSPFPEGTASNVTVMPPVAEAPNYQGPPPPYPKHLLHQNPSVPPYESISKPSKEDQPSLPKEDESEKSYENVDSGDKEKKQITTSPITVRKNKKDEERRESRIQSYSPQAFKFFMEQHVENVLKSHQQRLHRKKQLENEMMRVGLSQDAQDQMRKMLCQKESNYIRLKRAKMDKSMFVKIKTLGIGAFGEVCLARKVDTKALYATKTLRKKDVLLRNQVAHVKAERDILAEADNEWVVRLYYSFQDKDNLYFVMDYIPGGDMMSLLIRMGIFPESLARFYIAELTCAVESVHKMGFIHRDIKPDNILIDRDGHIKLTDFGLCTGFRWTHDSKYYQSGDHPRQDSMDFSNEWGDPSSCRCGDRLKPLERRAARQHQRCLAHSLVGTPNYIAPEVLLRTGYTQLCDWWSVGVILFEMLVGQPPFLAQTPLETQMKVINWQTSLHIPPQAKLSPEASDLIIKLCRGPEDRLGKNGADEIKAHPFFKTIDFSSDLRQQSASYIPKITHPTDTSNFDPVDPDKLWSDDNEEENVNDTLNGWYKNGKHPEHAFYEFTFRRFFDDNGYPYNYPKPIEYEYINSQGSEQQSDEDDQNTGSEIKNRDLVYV
# UniProt P42685, sequence (whole entry, looked up): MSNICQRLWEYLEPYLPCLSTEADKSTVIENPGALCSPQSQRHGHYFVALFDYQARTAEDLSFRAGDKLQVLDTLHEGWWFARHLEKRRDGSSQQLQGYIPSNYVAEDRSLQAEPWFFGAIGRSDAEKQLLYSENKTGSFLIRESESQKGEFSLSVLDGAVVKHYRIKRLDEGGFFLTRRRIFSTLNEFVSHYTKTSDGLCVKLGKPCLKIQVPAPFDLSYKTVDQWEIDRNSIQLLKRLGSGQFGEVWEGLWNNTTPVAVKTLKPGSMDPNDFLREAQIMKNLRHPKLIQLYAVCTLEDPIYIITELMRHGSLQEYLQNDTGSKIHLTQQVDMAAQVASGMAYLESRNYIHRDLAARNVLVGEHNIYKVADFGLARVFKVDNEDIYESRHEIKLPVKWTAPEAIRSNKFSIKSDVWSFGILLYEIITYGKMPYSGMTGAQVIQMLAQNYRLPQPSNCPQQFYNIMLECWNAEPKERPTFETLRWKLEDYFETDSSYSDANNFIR
# UniProt O00750, sequence (whole entry, looked up): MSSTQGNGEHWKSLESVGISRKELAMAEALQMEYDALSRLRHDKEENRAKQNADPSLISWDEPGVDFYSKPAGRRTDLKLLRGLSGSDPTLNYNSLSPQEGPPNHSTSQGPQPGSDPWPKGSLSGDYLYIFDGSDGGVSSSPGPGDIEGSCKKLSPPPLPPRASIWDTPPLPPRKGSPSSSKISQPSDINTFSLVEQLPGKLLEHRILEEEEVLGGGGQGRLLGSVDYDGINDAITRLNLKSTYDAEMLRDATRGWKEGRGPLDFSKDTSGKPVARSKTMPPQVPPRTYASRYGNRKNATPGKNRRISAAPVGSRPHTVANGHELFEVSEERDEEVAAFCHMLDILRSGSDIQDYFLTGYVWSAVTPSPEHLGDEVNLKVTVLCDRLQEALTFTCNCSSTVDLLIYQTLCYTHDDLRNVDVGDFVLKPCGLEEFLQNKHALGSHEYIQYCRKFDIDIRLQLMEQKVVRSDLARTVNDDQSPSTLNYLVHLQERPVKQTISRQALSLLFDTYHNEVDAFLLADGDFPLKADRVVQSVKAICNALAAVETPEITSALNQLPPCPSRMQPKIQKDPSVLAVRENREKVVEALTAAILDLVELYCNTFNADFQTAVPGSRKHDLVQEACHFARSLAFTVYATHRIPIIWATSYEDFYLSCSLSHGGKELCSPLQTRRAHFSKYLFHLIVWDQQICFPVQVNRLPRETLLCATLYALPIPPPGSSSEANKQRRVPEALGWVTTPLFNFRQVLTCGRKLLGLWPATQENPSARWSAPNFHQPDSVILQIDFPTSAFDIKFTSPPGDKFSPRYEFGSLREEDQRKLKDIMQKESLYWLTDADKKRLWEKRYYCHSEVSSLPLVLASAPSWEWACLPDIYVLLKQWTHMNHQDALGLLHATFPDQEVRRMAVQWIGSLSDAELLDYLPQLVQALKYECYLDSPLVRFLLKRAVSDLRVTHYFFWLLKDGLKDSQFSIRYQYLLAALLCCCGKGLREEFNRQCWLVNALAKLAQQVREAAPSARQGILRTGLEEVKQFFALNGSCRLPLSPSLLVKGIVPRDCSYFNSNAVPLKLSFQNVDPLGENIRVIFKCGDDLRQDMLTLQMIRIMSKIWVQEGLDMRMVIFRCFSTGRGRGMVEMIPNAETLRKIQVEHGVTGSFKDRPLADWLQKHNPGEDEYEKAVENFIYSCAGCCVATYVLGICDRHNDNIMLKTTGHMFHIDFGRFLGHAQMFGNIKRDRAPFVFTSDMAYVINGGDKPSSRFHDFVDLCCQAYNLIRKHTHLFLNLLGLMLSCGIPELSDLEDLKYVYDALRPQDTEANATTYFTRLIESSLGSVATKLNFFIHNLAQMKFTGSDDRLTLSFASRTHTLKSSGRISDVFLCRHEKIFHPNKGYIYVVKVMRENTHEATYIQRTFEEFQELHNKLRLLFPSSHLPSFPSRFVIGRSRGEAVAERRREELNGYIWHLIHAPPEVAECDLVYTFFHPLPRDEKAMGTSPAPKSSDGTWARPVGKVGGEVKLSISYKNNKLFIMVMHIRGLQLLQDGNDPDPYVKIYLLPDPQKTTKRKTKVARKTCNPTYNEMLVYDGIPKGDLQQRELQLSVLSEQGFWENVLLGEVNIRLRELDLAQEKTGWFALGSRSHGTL
# UniProt Q92772, sequence (whole entry, looked up): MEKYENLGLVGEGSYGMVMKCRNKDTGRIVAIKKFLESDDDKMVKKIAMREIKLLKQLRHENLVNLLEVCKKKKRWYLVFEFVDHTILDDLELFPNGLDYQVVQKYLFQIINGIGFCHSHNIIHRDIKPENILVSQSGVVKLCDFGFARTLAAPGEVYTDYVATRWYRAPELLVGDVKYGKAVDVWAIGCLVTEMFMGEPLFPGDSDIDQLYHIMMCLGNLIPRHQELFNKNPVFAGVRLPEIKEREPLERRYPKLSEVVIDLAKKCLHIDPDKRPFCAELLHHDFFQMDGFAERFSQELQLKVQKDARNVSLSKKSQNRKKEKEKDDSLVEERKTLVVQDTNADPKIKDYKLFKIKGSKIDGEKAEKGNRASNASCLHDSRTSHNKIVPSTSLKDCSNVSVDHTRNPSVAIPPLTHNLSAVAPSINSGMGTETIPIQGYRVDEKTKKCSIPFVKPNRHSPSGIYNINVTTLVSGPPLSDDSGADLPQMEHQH

# Set 1 — cell line: mouse MPNST tumor cells; method: high-content nuclear imaging; item: cell number; concentration: 10 µM; time: 12 h; notes: mean of 2 replicates; reference: plate mean; direction: higher = more cells
Compound,nuclei count
CC(=O)c1cc(-c2cc(C(=O)NC3CC3)ccc2C)c2ncccn12,-2.16 z-score and -3.32 z-score
C[C@](Cc1c[nH]c2ccccc12)(NC(=O)OC1[C@H]2C[C@@H]3C[C@@H](C[C@H]1C3)C2)C(=O)NC[C@H](NC(=O)CCC(=O)O)c1ccccc1 (stereo partly shown),-0.302 z-score
COCCOC(=O)C1=C(C)NC(C)=C(C(=O)OC(C)C)C1c1cccc([N+](=O)[O-])c1 (stereo not shown),1.45 z-score
Cc1ccc2c(=O)c3cccc(CC(=O)O)c3oc2c1C,0.708 z-score
O=C(CCCN1CCN(c2ccccn2)CC1)c1ccc(F)cc1,0.425 z-score

# Set 2 — method: competition with immobilised ligand; concentration: 1 µM
# SMILES: O=C(N1CCS(=O)(=O)CC1)N1C[C@H](c2ccc(OC(F)(F)F)cc2)C[C@H](c2nc(C3CC3)no2)C1
target,observed,remaining binding [%]
"BDNF/NT-3 growth factors receptor (NTRK2, Homo sapiens, UniProt Q16620)",cell-free assay,94
"Cyclin-dependent kinase-like 2 (CDKL2, Homo sapiens, UniProt Q92772)",binding,100
"Beta-adrenergic receptor kinase 1 (GRK2, Homo sapiens, UniProt P25098)",cell-free assay,66
"Phosphatidylinositol 3-kinase C2 domain-containing subunit gamma (PIK3C2G, Homo sapiens, UniProt O75747)",cell-free assay,93
"Phosphatidylinositol 4-phosphate 3-kinase C2 domain-containing subunit beta (PIK3C2B, Homo sapiens, UniProt O00750)",cell-free assay,100
"Tyrosine-protein kinase FRK (FRK, Homo sapiens, UniProt P42685)",cell-free assay,100
"Serine/threonine-protein kinase LATS1 (LATS1, Homo sapiens, UniProt O95835)",cell-free assay,100
"Bone morphogenetic protein receptor type-1A (BMPR1A, Homo sapiens, UniProt P36894)",binding,89

# Set 3 — method: Incucyte 3D growth; concentration: 30 µM; direction: higher = more growth
# SMILES: CC(C)(C(=O)O)[C@H](NC(=O)Cc1cccc(I)c1)c1ccc2oc(=O)[nH]c2c1
cell line,time,spheroid area
MEL-JUSO,330.52 h,3.04e+07 a.u. and 4.02e+07 a.u. and 4.85e+07 a.u. and 2.72e+07 a.u. and 3.43e+07 a.u. and 4.12e+07 a.u.
IPC-298,42 h,2.87e+07 a.u. and 2.82e+07 a.u. and 2.57e+07 a.u. and 2.03e+07 a.u. and 2.67e+07 a.u. and 2.3e+07 a.u.
IPC-298,216 h,2.53e+07 a.u. and 3.2e+07 a.u. and 2.79e+07 a.u. and 2.85e+07 a.u. and 4.03e+07 a.u. and 2.47e+07 a.u.
MEL-JUSO,6.52 h,1.27e+07 a.u. and 7.36e+06 a.u. and 8.49e+06 a.u. and 8.84e+06 a.u. and 9.44e+06 a.u. and 8.72e+06 a.u.
IPC-298,78 h,3.14e+07 a.u. and 2.45e+07 a.u. and 3e+07 a.u. and 3.13e+07 a.u. and 2.77e+07 a.u. and 2.97e+07 a.u.
NCI-H358,252 h,8.97e+06 a.u. and 9.76e+06 a.u. and 1.25e+07 a.u. and 7.69e+06 a.u. and 8.8e+06 a.u.
KP-4,192 h,2.99e+07 a.u. and 3.06e+07 a.u. and 4.31e+07 a.u. and 2.97e+07 a.u. and 1.77e+07 a.u. and 3.42e+07 a.u.

# Set 4 — observed: enzyme activity; action: inhibitor; concentration: 0.5 µM; reference: control
# Target: Casein kinase I isoform gamma-2 (CSNK1G2, Homo sapiens, UniProt P78368)
# UniProt P78368, sequence (whole entry, looked up): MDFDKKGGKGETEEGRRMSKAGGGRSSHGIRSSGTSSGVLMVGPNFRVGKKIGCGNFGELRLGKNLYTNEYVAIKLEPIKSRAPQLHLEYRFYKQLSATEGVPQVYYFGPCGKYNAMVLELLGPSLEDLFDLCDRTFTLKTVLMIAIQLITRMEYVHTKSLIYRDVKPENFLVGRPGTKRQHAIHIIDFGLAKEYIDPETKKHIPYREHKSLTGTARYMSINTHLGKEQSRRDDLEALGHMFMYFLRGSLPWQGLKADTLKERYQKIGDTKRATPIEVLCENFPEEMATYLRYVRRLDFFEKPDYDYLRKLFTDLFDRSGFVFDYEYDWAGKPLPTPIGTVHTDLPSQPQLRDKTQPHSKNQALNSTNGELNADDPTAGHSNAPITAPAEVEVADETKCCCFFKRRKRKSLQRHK
Compound,remaining activity
Oc1ccc(-c2nc(-c3ccncc3)c(-c3ccc(F)cc3)[nH]2)cc1,91.9%
Nc1[nH]nc2nc3ccccc3nc12,93.8%
O=C1NC(=O)C(c2cn(CCCn3ccnc3)c3ccccc23)=C1Nc1ccccc1,95.4%
COc1cc2nccc(Oc3ccc(NC(=S)NC(=O)c4ccccc4C)cc3)c2cc1OC,106%
Cc1nc(-c2ccccc2)c(-c2ccncc2)o1,92.2%
Cc1cccc(-c2[nH]c(C(C)(C)C)nc2-c2ccc3c(c2)OCO3)n1,104%
Cc1ccc(NC(=O)c2ccc(CN3CCN(C)CC3)cc2)cc1Nc1nc(-c2cccnc2)cs1,92.9%
O=c1c2ccccc2[nH]c(=S)n1CCN1CCC(=C(c2ccc(F)cc2)c2ccc(F)cc2)CC1,98.6%
CO[C@H]1C[C@@H]2CC[C@@H](C)[C@@](O)(O2)C(=O)C(=O)N2CCCC[C@H]2C(=O)O[C@H]([C@H](C)C[C@@H]2CC[C@@H](O)[C@H](OC)C2)CC(=O)[C@H](C)/C=C(\C)[C@@H](O)[C@@H](OC)C(=O)[C@H](C)C[C@H](C)/C=C/C=C/C=C/1C,94.8%
CCOC(=O)c1c(C)[nH]c(/C=C2\C(=O)Nc3ccccc32)c1C,84.8%
COc1ccc(OC)c2c(=S)c3ccccc3[nH]c12,103%
O=C(Nc1cccc(Nc2cc(Nc3cccc(C(F)(F)F)c3)ncn2)c1)C1CC1,99.1%
Cn1sc(=O)n(Cc2ccccc2)c1=O,95%
CN(C)c1ccc(C=C2C(=O)Nc3ccccc32)cc1,96.7%
